Published values of several laboratories.
Target: Serine/threonine-protein kinase TNNI3K (TNNI3K, Homo sapiens, UniProt Q59H18)

| SMILES | read-out | technique | cells | tested at | relative to | quantity | result |
| --- | --- | --- | --- | --- | --- | --- | --- |
| Cc1ccc(-c2c(/C=C(\C#N)C(=O)NC(C)C)n(CCCO)c3ncnc(N)c23)cc1 | cell-free assay | competition with immobilised ligand |  | 1 µM |  | remaining binding | 81% |
| CC(C)=CC1OC(C)(C)C2C=C3C(=O)C(Cl)=CC(O)C3C3C(O)C4OC4C(=O)C132 (stereo not drawn) | cell-free assay | competition with immobilised ligand |  | 10 µM |  | remaining binding | 100% |
| COc1cc(Nc2nc(C)cc(-c3cnn4nc(OC)ccc34)n2)cc(C(F)(F)F)c1 | binding | competition with immobilised ligand |  | 1 µM |  | remaining binding | 100% |
| CNC1C[S+]2CC[S+]3CC[S+](C1)[Ru-4]321([N]=C=S)[n]2c3ccc(OC)cc3c3c4c(c5cc(F)c[n+]1c5c32)C(=O)NC4=O (stereo not drawn) |  | KinomeScan |  | 0.1 µM | untreated | remaining binding | 100% |
| C=CC(=O)N1CCCC(n2c(=O)c3ncccc3n(Cc3ccc(Oc4ccccc4)cc3)c2=O)C1 (stereo not drawn) | cell-free assay | competition with immobilised ligand |  | 1 µM |  | remaining binding | 100% |
| COc1c(Cl)cccc1Nc1c(-c2ccncc2C#C[C@@]2(C)CCCN2C(=O)/C=C/CN(C)C)[nH]c2c1C(=O)NCC2 | binding | competition with immobilised ligand |  | 3 µM |  | remaining binding | 92% |
| CCN1CCN(Cc2ccc(C(=O)Nc3ccc(C)c(NCc4cnc5[nH]ccc5c4OC)c3)cc2C(F)(F)F)CC1 | binding | competition with immobilised ligand |  | 1 µM |  | remaining binding | 7% |
| Nc1ncc2c(n1)-c1c([nH]c3ccc(C4=CCOCC4)cc13)CCC2 | binding | competition with immobilised ligand |  | 1 µM |  | remaining binding | 99% |
| CCN1CCN(Cc2ccc(NC(=O)c3ccc(C)c(NC(=O)c4cncc(-c5cnn(C)c5)c4)c3)cc2C(F)(F)F)CC1 | binding | competition with immobilised ligand |  | 1 µM |  | remaining binding | 25% |
| Cc1ccc(C(=O)Nc2ccc(CN3CCN(C)CC3)c(C(F)(F)F)c2)cc1C#Cc1cnc2cccnn12 | target engagement | NanoBRET | human cells |  |  | Hill slope | 1.29 |
| CCN1CCN(Cc2ccc(NC(=O)c3ccc(C)c(NC(=O)c4cncc(-c5cccs5)c4)c3)cc2C(F)(F)F)CC1 | binding | competition with immobilised ligand |  | 1 µM |  | remaining binding | 3.1% |
| CNC(=O)C1CCN(c2cc(C)c(F)cc2NC(=O)c2ccc(-c3cc(O)ccc3C)c(C)c2)CC1 | binding | competition with immobilised ligand |  | 1 µM |  | remaining binding | 50% |
| Cc1cnc2nc1Nc1cccc(c1)COC/C=C/COCc1cc(ccc1OCCN1CCOCC1)N2 | binding | competition with immobilised ligand |  | 0.1 µM |  | remaining binding | 100% |
| COc1cc(Nc2nccc(-c3cnn4nc(OC)ccc34)n2)cc(C(F)(F)F)c1 | binding | competition with immobilised ligand |  | 1 µM |  | remaining binding | 93% |
| C=CC(=O)N1CCc2ccc(-n3c(=O)ccc4cnc5ccc(-c6cnn(C)c6)cc5c43)cc21 |  | KINOMEscan |  | 1 µM | DMSO control | remaining binding | 84% |

Repeated from above:
| SMILES | read-out | technique | cells | tested at | relative to | quantity | result |
| --- | --- | --- | --- | --- | --- | --- | --- |
| CNC(=O)C1CCN(c2cc(C)c(F)cc2NC(=O)c2ccc(-c3cc(O)ccc3C)c(C)c2)CC1 | binding | competition with immobilised ligand |  | 1 µM |  | remaining binding | 50% |
| CNC1C[S+]2CC[S+]3CC[S+](C1)[Ru-4]321([N]=C=S)[n]2c3ccc(OC)cc3c3c4c(c5cc(F)c[n+]1c5c32)C(=O)NC4=O (stereo not drawn) |  | KinomeScan |  | 0.1 µM | untreated | remaining binding | 100% |
